Measured values gathered from unrelated publications.
Each line is one published result; not all experiments were run side by side. ≈ marks a conversion by molar mass, not a printed value.

O=C(N1CCc2ccccc21)n1ccnn1  hypocotyl length (Arabidopsis thaliana; wild type, seedlings; 30 µM, continuous red light, together with: 0.3 µM karrikin KAR2): 2.26 mm
CC(=O)NC[C@H]1CN(c2ccc(N3CCOCC3)c(F)c2)C(=O)O1  MIC (Enterococcus faecium; NR-31970): 2.96 µM (≈ 0.999 µg/mL)
CC(C)n1ncc2c(C(=O)NCC3(C)CNC3)cc(C3CC3)nc21  plaque reduction (Enterovirus D68; viral replication; RD, US/MO/14-18947; 10 nM): 0%
CN[C@H](CC(C)C)C(=O)N[C@H]1C(=O)N[C@@H](CC(N)=O)C(=O)N[C@H]2C(=O)N[C@H]3C(=O)N[C@H](C(=O)N[C@H](C(=O)O)c4cc(O)cc(O)c4-c4cc3ccc4O)[C@H](O)c3ccc(c(Cl)c3)Oc3cc2cc(c3O[C@@H]2O[C@H](CO)[C@@H](O)[C@H](O)[C@H]2O[C@H]2C[C@](C)(N)[C@H](O)[C@H](C)O2)Oc2ccc(cc2Cl)[C@H]1O  MIC50 (Enterococcus faecium; Enterococcus faecalis; 40 strains): 0.5 µg/mL (≈ 0.345 µM)
Cc1cc(OC(C)C)ccc1C(=O)C(C)(C)NC(=O)c1sccc1C  EC50 (Passalora; mycelial growth; PSA medium; 20 °C, suspension concentrate 400 g/L): 0.66 µg/mL (≈ 1.84 µM)
C=C[C@]1(C)C[C@@H](OC(=O)CSCCN(CC)CC)[C@]2(C)[C@H](C)CC[C@]3(CCC(=O)[C@H]32)[C@@H](C)[C@@H]1O  mycoplasma load reduction (Mycoplasma gallisepticum; infected chickens, lung; oral, 40 mg/kg; reference: 0 h): 2.81 log10 CFU/mL
COc1cc(C#CC(=O)c2ccccc2)ccc1O  IC50 (Pseudomonas aeruginosa; biofilm formation; PA14; static): 9 µM
CC(=O)NC[C@H]1CN(c2ccc(N3CCOCC3)c(F)c2)C(=O)O1  MIC90 (Enterococcus faecium; agar dilution; vancomycin-intermediate; 25 isolates): 4 µg/mL (≈ 11.9 µM)
Cc1ccc(CCC(=O)Nc2nnc(S(N)(=O)=O)s2)cc1  MIC (Enterococcus faecium; NR-31937): 0.383 µM (≈ 0.125 µg/mL)
CN[C@H](CC(C)C)C(=O)N[C@H]1C(=O)N[C@@H](CC(N)=O)C(=O)N[C@H]2C(=O)N[C@H]3C(=O)N[C@H](C(=O)N[C@H](C(=O)O)c4cc(O)cc(O)c4-c4cc3ccc4O)[C@H](O)c3ccc(c(Cl)c3)Oc3cc2cc(c3O[C@@H]2O[C@H](CO)[C@@H](O)[C@H](O)[C@H]2O[C@H]2C[C@](C)(N)[C@H](O)[C@H](C)O2)Oc2ccc(cc2Cl)[C@H]1O  MIC90 (Enterococcus faecium; agar dilution; compound-intermediate isolates): 8 µg/mL (≈ 5.52 µM)
COC(=O)[C@@H](CCSC)NCc1cc2ccccc2nc1SC  growth (Pseudomonas aeruginosa; 128 µg/mL, without pentamidine; reference: control): 89.3%

Excerpt of the above:
Cc1cc(OC(C)C)ccc1C(=O)C(C)(C)NC(=O)c1sccc1C  EC50 (Passalora; mycelial growth; PSA medium; 20 °C, suspension concentrate 400 g/L): 0.66 µg/mL (≈ 1.84 µM)
O=C(N1CCc2ccccc21)n1ccnn1  hypocotyl length (Arabidopsis thaliana; wild type, seedlings; 30 µM, continuous red light, together with: 0.3 µM karrikin KAR2): 2.26 mm
